Assay results from different studies.
Values joined by “and” are separate records of one study, mostly repeats; a detail may differ.
Chain of UniProt O88693 (whole entry, looked up): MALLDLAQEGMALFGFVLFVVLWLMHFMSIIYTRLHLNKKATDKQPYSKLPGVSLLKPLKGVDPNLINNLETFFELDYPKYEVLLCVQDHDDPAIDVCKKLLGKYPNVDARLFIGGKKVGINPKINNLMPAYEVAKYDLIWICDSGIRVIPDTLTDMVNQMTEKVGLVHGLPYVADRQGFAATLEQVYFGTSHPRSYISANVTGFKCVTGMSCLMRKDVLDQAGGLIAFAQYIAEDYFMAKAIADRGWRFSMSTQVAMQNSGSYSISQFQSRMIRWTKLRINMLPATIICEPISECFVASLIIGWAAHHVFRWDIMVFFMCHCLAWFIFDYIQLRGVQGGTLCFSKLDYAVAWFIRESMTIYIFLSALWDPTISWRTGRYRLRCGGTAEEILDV

C=CC(=O)Nc1cc(Nc2nccc(-c3c[nH]c4ccccc34)n2)c(OC)cc1N(C)CCN(C)C — percentage recovery (storage stability; human plasma samples; 30 d, -80 °C, HQC level; baseline: nominal concentration): 12.2%
CC(C)(O)c1ncc([S@](N)(=O)=NC(=O)Nc2c3c(cc4c2CCC4)CCC3)s1 — subjects with adverse events (refers to: Gastrointestinal disorders; healthy human volunteers; oral, 30 mg once daily, 14 days, capsule formulation): 50%
CN1CCN(c2ccc(/C=C/c3cc(=O)cc(/C=C/c4ccc(N5CCN(C)CC5)cc4)o3)cc2)CC1 — fluorescence lifetime (acetonitrile/water 1:19 v/v; 298 K, aggregate nanoparticle suspension, added: excitation 377 nm): 0.4 ns
OC[C@@H]1[C@@H](O)[C@H](O)[C@@H](O)CN1CCCCCOCC1CCC1 — IC50 (Ceramide glucosyltransferase (Ugcg, Mus musculus, UniProt O88693); enzyme activity, inhibitor; RAW264.7; in situ, added: C6-NBD-ceramide): 640 nM
O=C(Nc1cnccc1-c1ccc([18F])cc1)c1ccnc(NC(=O)C2CC2)c1 — SUV (FVB/NJ mice (both sexes), feces; intravenous, dose not given, 120 min): 2.84
CCC(CC)n1c(Cc2cccs2)nc2cc(C(=O)N[C@@H](CC(=O)O)c3ccccc3)ccc21 — MRT(0-t) (male Sprague-Dawley rat, plasma; intravenous, 1 mg/kg): 0.86 h
O=C(NC1CCOCC1)c1ccc([C@H]2[C@@H](F)[C@@H](F)C[C@@H](F)[C@H]2F)cc1 — hepatic clearance (hepatocyte stability; cryopreserved human hepatocytes; 1 µM): 6.2 mL/min/kg
CN(Cc1cc(C2CC2)on1)C(=O)c1cccc(-c2ccc(F)cc2)c1 — compound remaining (metabolic stability; human, liver microsomes; 2 µM, 0 h, pH 7.5): 100%
O=C(Nc1cnccc1-c1ccc([18F])nc1)c1ccnc(NC(=O)C2CC2)c1 — SUV (FVB/NJ mouse, both sexes, liver; intravenous, 5 min): 7.51
F[C@@H]1[C@H](c2ccc(-c3ccc(N4CCCC4)nc3)cc2)[C@H](F)[C@H](F)C[C@@H]1F — hepatic clearance (liver microsome stability; human liver microsomes; 1 µM, without NADPH): 8.5 mL/min/kg
C=C[C@]1(C)C[C@@H](OC(=O)CSc2ccc(NC(=O)c3ccco3)cc2)[C@]2(C)[C@H](C)CC[C@]3(CCC(=O)[C@H]32)[C@@H](C)[C@@H]1O — AUC(0-24 h) (M. gallisepticum-infected chickens, plasma; intramuscular, 40 mg/kg single dose): 10200 ng·h/mL and 10100 ng·h/mL
Nc1ncc(-c2ccc([C@H]3[C@@H](F)[C@@H](F)C[C@@H](F)[C@H]3F)cc2)cn1 — hepatic clearance (hepatocyte stability; cryopreserved rat hepatocytes; 1 µM): 10 mL/min/kg
COc1cccc(OC)c1-c1cc(C(=O)NC2(C(=O)O)C3CC4CC(C3)CC2C4)nn1-c1ccc(C(=O)NCCNC(=O)[C@H](CCCCNC(=O)[C@H](CC(C)C)NC(=O)C2OC2C(=O)O)NC(=O)CN2CCN(CC(=O)[O-])CCN(CC(=O)[O-])CCN(CC(=O)[O-])CC2)cc1C(C)C.[177Lu+3] (mixture of isomers) — tumour-to-kidney ratio (mouse, HT-29 xenograft; 72 h post injection, biodistribution; baseline: tumour over kidney uptake): 1.49
O=C(CCC(F)(F)F)Nc1ccc(C2CCCCC2)cc1 — hepatic clearance (liver microsome stability; cynomolgus liver microsomes; 1 µM): 37 mL/min/kg
C=C(NC(=O)c1csc(-c2nc3c(cc2O)-c2nc(cs2)C(=O)NC(C(C)O)C(=O)NC(=C(C)OC)c2nc(cs2)C(=O)NC2c4nc(cs4)C(=O)NC(COC(=O)c4c5c6c(cccc6n4O)COC(=O)C(OC4CC(C)(O)C(N(C)C)C(C)O4)C2OC5)c2nc-3cs2)n1)C(N)=O (stereo not shown) — Cmax (ICR mice, Streptococcus pneumoniae ATCC 49169 infected, immunocompromised, blood; intravenous, 4 mg/kg/day twice daily): 147 ng/mL
Cc1[nH]c(=O)c(CNC(=O)c2cc(Cl)c3c(c2C)O[C@@](C)([C@H]2CC[C@H](N(C)C)CC2)O3)c(C)c1O — AUC(0-inf) ratio (human male, plasma; oral, 200 mg of valemetostat; baseline: compound over valemetostat): 0.88
CN(C)c1cccc(-c2ccc([C@H]3[C@@H](F)[C@@H](F)C[C@@H](F)[C@H]3F)cc2)c1 — hepatic clearance (liver microsome stability; cynomolgus liver microsomes; 1 µM): 37 mL/min/kg
C/C(N)=N/C(=N\S(=O)(=O)c1ccc(C(F)(F)F)cc1)N1C[C@H](c2ccccc2)C(c2ccc(Cl)cc2)=N1 — half-life (male Sprague-Dawley rat, plasma; oral, 30 mg/kg): 5 h
CC(C)C[C@H](NC(=O)[C@H](CCCN)NC(=O)CNC(=O)[C@@H](NC(=O)[C@H](C)NC(=O)[C@@H]1CSCSC[C@H](NC(=O)CC[C@H](N)C(=O)O)C(=O)N[C@@H](CC(N)=O)C(=O)N[C@@H]([C@@H](C)O)C(=O)N[C@@H](C)C(=O)N[C@@H]([C@@H](C)O)C(=O)N1)[C@@H](C)O)C(=O)N[C@@H](C)C(=O)N[C@@H](CCC(=O)O)C(=O)N[C@@](C)(Cc1ccccc1)C(=O)N[C@@H](CC(C)C)C(=O)N[C@H](C(=O)N[C@@H](CCCNC(=N)N)C(=O)N[C@@H](CO)C(=O)N[C@@H](CO)C(=O)N[C@@H](CC(N)=O)C(=O)N(C)[C@@H](CC(N)=O)C(=O)N[C@@H](Cc1ccccc1)C(=O)NCC(=O)N1CCC[C@H]1C(=O)N[C@@H](CCCCNC(=O)CC[C@H](NC(=O)CC[C@H](NC(=O)CCCCCCCCCCCCCCCCCCC(=O)O)C(=O)O)C(=O)O)C(=O)N[C@@H](CC(C)C)C(=O)N1CCC[C@H]1C(=O)N1CCC[C@H]1C(=O)N[C@H](C(=O)N[C@@H](CCC(=O)O)C(=O)N[C@H](C(=O)NCC(=O)N[C@@H](CO)C(=O)N[C@@H](CC(N)=O)C(=O)N[C@H](C(=O)N[C@@H](Cc1ccc(O)cc1)C(N)=O)[C@@H](C)O)C(C)C)[C@@H](C)O)C(C)C — half-life (human, plasma; subcutaneous, 1.2 mg, single dose, healthy volunteers): 310 h
C=CC(=O)N1CCCC(n2c(=O)c3ncccc3n(Cc3ccc(Oc4ccccc4)cc3)c2=O)C1 (stereo not shown) — concentration (male BALB/c mouse, plasma; oral, 200 mg/kg, 30 min): 30400 ng/mL
C=CC(=O)Nc1cc(Nc2nccc(-c3cn(C)c4ccccc34)n2)c(OC)cc1N(C)CCNC — recovery (storage stability; human dried blood spots; 24 h, -80 °C, medium QC level): 96.1%
c1cc(C2CCCCC2)ccc1-c1ccc(N2CCCC2)nc1 — hepatic clearance (liver microsome stability; cynomolgus liver microsomes; 1 µM): 29 mL/min/kg
COc1ccc2c(c1)CN(C(=O)CCN1CCC(Cc3ccccc3)CC1)CCS2 — unbound plasma concentration (paroxysmal AF patients, plasma; oral, 540 mg, 0 min): 0 nM
COc1cccc(OC)c1-c1cc(C(=O)NC2(C(=O)O)C3CC4CC(C3)CC2C4)nn1-c1ccc(C(=O)N(C)CCOCCN(C)C(=O)[C@H](CCCCNC(=O)[C@H](CC(C)C)NC(=O)C2OC2C(=O)O)NC(=O)CN2CCN(CC(=O)[O-])CCN(CC(=O)[O-])CCN(CC(=O)[O-])CC2)cc1C(C)C.[177Lu+3] (mixture of isomers) — tissue uptake (mouse HT-29 xenograft, large intestine; 72 h post injection, biodistribution): 0.119 %ID/g
CN(C)c1cccc(-c2ccc(C3CCCCC3)cc2)c1 — hepatic clearance (liver microsome stability; human liver microsomes; 1 µM, without NADPH): 4.2 mL/min/kg
CCC1=[N+]2N=C(/C=C/c3ccccc3)C(=O)O[B-]2(c2ccccc2)Oc2cc(N(CC)CC)ccc21 (stereo not shown) — fluorescence emission maximum (toluene): 531 nm
O=C(Nc1ccc([C@H]2[C@@H](F)[C@@H](F)C[C@@H](F)[C@H]2F)cc1)C1CC1 — hepatic clearance (liver microsome stability; human liver microsomes; 1 µM, without NADPH): 3.9 mL/min/kg
CC[C@H](C)[C@@H]1NC(=O)[C@H](Cc2ccc(O)cc2)NC(=O)CCCSC[C@@H](C(=O)N(CC(=O)N[C@@H](CC(C)C)C(=O)NCC(N)=O)Cc2ccc(F)cc2)NC(=O)[C@H](CC(N)=O)NC(=O)[C@H](CCC(N)=O)NC1=O — AE leading to discontinuation (human; intranasal, 15 µg single dose): 0%

Repeated from above:
CN1CCN(c2ccc(/C=C/c3cc(=O)cc(/C=C/c4ccc(N5CCN(C)CC5)cc4)o3)cc2)CC1 — fluorescence lifetime (acetonitrile/water 1:19 v/v; 298 K, aggregate nanoparticle suspension, added: excitation 377 nm): 0.4 ns
OC[C@@H]1[C@@H](O)[C@H](O)[C@@H](O)CN1CCCCCOCC1CCC1 — IC50 (Ceramide glucosyltransferase (Ugcg, Mus musculus, UniProt O88693); enzyme activity, inhibitor; RAW264.7; in situ, added: C6-NBD-ceramide): 640 nM
O=C(Nc1cnccc1-c1ccc([18F])cc1)c1ccnc(NC(=O)C2CC2)c1 — SUV (FVB/NJ mice (both sexes), feces; intravenous, dose not given, 120 min): 2.84
CCC(CC)n1c(Cc2cccs2)nc2cc(C(=O)N[C@@H](CC(=O)O)c3ccccc3)ccc21 — MRT(0-t) (male Sprague-Dawley rat, plasma; intravenous, 1 mg/kg): 0.86 h
